Measured values collected from several papers.
Parts stem from different laboratories: compare values within a part only. Substitutions count along the parent as printed.

Set 1
Target: Phosphate system positive regulatory protein PHO4, full length, GST-tagged (PHO4, Saccharomyces cerevisiae, UniProt P07270, residues 1-312)
Technique: competition protein-binding microarray
Form: double-stranded DNA, one strand shown
Medium: in vitro
Tested at: 2 µM
Notes: whole 60-bp probe, lowest competitor level
Added: Cbf1 competitor, 0.05 µM
Reading: higher = stronger binding
Constant ends, left off below: … GTCTTGATTCGCTTGACGCTGCTG
Construct (chain): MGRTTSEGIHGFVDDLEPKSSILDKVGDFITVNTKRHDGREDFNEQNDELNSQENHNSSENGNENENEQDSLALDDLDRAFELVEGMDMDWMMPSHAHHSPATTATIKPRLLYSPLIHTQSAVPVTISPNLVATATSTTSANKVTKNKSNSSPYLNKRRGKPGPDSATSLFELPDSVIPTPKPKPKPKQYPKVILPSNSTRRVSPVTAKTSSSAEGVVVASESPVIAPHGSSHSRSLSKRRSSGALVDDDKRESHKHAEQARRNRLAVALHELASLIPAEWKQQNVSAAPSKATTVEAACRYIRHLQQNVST
Sequence	fluorescence intensity
CTAACGAAGGTTTGTTCGGTGGGTGACAAGCCAAGT	3360 a.u.
ATTTCATTATCCTGCCCCGTGGCAAGTATTTCTGTG	11100 a.u.
AAATTACTAAGTTGTCACTTTACTTACCCCGTATGA	3100 a.u.
GGTTGTGGAGCATTCAGCGTGATGGCAAAAGGTGTT	6370 a.u.
GTTGACAAACCCGGCCACGTGACTCGAGCTTAGAAG	15600 a.u.
TTCCAGGACATTCACCATGTGCTTTTTTCCATAACA	10500 a.u.
CCGGTGTTACCCAAGCTCGTGTTTTCACTGGTAACA	9990 a.u.
CCGTCTTAGCACCCGCACACGCAGACGCAGCGCTCA	8350 a.u.
ACAAATCAAGAATCGCACGTGAAAATATCAAGCGCG	14900 a.u.
CTTGGAATCAACTTGGTCATGACAACACCAGCAGTT	3790 a.u.
ACAACCCTTCCCTTACGCGTGGTCGCTCCCAGTCGA	7290 a.u.

Set 2
Target: ABI1, truncated, D143A, DHFR fusion (Arabidopsis thaliana)
Technique: DHFR PCA, deep sequencing
Medium: yeast
Notes: methotrexate growth selection, single substitutions
Added: (+)-ABA 17 µM
Relative to: wild-type fitted maximum
Reading: higher = stronger binding
Parent: PYL1, truncated, DHFR fusion (Arabidopsis thaliana); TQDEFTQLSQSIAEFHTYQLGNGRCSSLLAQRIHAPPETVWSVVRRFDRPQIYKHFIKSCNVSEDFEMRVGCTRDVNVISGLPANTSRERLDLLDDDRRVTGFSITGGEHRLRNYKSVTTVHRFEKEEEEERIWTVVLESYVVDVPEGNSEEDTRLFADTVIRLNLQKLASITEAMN
Change	relative binding score [%]
L29H	80.7
N61S	91.3
T173Y	5.87
D144H	7.54
P146G	32.5
L138M	62.6

Set 3
Target: Histone acetyltransferase KAT6A, both winged helices, GST fusion (KAT6A, Homo sapiens, UniProt Q92794, residues 1-181)
Technique: protein binding microarray
Form: double-stranded DNA, one strand shown
Medium: in vitro
Tested at: not given
Notes: 8-mer, flanks averaged, mean of 2 arrays, mostly near background
Relative to: not given
Reading: higher = stronger binding
Target sequence (chain): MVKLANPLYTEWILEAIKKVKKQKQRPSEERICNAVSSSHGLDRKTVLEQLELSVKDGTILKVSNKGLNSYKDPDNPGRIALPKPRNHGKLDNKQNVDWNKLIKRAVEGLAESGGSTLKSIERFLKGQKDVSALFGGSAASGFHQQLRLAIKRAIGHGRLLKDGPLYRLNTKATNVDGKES
Sequence	E-score
ACGTGGAA	0.152
ACATTTAT	-0.0744
AAAGCTCT	-0.0698
ACCGCTCT	0.134
GTTAAAAA	-0.073
AAGCAAAC	-0.0609
GGGTTGAA	-0.0641
GATAAAGA	-0.0753

Other studies, line by line
Substance	target	test	test system	setting	how to read	measurement	result
PhoQ, residues 284 288 289 292 302 303 TLMATV	PhoP, residues 12 14 15 18 19 NNFVT (Escherichia coli, UniProt P23836)	Sort-seq, item: YFP reporter	E. coli	PhoQ-PhoP variant library, added: 10 µM Mg2+	relative to: high Mg2+ state, higher = stronger signaling	fold induction	3.29

Excerpt of the above (set 1):
Sequence	fluorescence intensity
CTTGGAATCAACTTGGTCATGACAACACCAGCAGTT	3790 a.u.
CCGTCTTAGCACCCGCACACGCAGACGCAGCGCTCA	8350 a.u.
